Results gathered from unrelated publications.
Compare with care: the assays were run in different laboratories. Values joined by “and” are separate records of one study, mostly repeats; a detail may differ.
Cell line: SK-MEL-28

Compound | test | setting | scale | quantity | result
CCN(CC)c1ccc(C=NNC(=O)CSc2nc3ccccc3c(=O)n2Cc2ccc(S(N)(=O)=O)cc2)c(O)c1 | NCI five-dose screen | – | – | TGI | > 100 µM
Cc1cc(C)n(-c2nc(-c3ccc(Cl)cc3)c3c(NC(=O)c4ccccc4)nnc-3[nH]2)n1 | SRB | 10 µM, NCI60 single-dose screen | reference: untreated | cell growth | 104%
COc1ccc(OC)c(-c2nc3ccc(-c4nc5ccc(N6CCN(C)CC6)cc5[nH]4)cc3[nH]2)c1 | SRB | 10 µM, 48 h | – | growth percent | 98.4%
Cc1cc(=O)[nH]c(=O)n1Cc1cn(-c2c3ccccc3nc3ccccc23)nn1 | NCI60 single-dose screen | 10 µM | – | growth percentage | 75.6%
[Cl-].[Cl-].[Ru+2].c1cnc2c(c1)ccc1cccnc12.c1cnc2c(c1)ccc1cccnc12.c1csc(-c2nc3c4cccnc4c4ncccc4c3[nH]2)c1 | – | normoxia, added: visible light 100 J/cm2 | reference: dark EC50 over light EC50 | phototherapeutic index | ~200
O=C(Nc1nnc2[nH]c(=S)[nH]c(-c3ccc(Cl)cc3)c1-2)c1ccccc1 | SRB | 10 µM, NCI60 single-dose screen | reference: untreated | cell growth | 104%
[Cl][Ru][Cl].c1cnc2c(c1)ccc1cccnc12.c1cnc2c(c1)ccc1cccnc12.c1cnc2c(c1)ccc1cccnc12 | – | normoxia, added: visible light 100 J/cm2 | reference: dark EC50 over light EC50 | phototherapeutic index | > 10
CCCCN1CCN(c2ccc3[nH]c(-c4ccc5[nH]c(-c6ccc(OCC)c(OCC)c6)nc5c4)nc3c2)CC1 | SRB | 10 µM, 48 h | – | growth percent | 45.8%
[Cl-].[Cl-].[Ru+2].c1cnc2c(c1)ccc1cccnc12.c1cnc2c(c1)ccc1cccnc12.c1csc(-c2ccc(-c3ccc(-c4nc5c6cccnc6c6ncccc6c5[nH]4)s3)s2)c1 | resazurin viability | normoxia, added: green light 523 nm | – | EC50 | 0.3 µM
CCCN1CCN(c2ccc3nc(-c4ccc5nc(-c6cc(OC)ccc6OC)[nH]c5c4)[nH]c3c2)CC1 | SRB | 10 µM, 48 h | – | growth percent | 99.4%
C#C[C@@]1(O)[C@@H](CO)O[C@@H](n2cc(Cl)c3c(N)ncnc32)[C@@H]1O | SRB | NCI-60 screen | – | TGI | 57.1 µM and 89.4 µM
CSc1nc(-c2ccc(Cl)cc2)c2c(NC(=O)c3ccccc3)nnc-2[nH]1 | SRB | 10 µM, NCI60 single-dose screen | reference: untreated | cell growth | 106%
[Cl-].[Cl-].[Ru+2].c1cnc2c(c1)ccc1cccnc12.c1cnc2c(c1)ccc1cccnc12.c1csc(-c2ccc(-c3ccc(-c4ccc(-c5nc6c7cccnc7c7ncccc7c6[nH]5)s4)s3)s2)c1 | – | normoxia, added: green light 523 nm | – | phototherapeutic index | 1600
C#C[C@@]1(O)[C@@H](CO)O[C@@H](n2ccc3c(N)ncnc32)[C@@H]1O | SRB | NCI-60 screen | – | TGI | 20.2 µM

For quick reference, copied from above:
Compound | test | setting | scale | quantity | result
Cc1cc(C)n(-c2nc(-c3ccc(Cl)cc3)c3c(NC(=O)c4ccccc4)nnc-3[nH]2)n1 | SRB | 10 µM, NCI60 single-dose screen | reference: untreated | cell growth | 104%
O=C(Nc1nnc2[nH]c(=S)[nH]c(-c3ccc(Cl)cc3)c1-2)c1ccccc1 | SRB | 10 µM, NCI60 single-dose screen | reference: untreated | cell growth | 104%
